Published values from different studies.
Partner: itself
B1: CER6 (Zea mays, UniProt B4G0N2); sequence looked up; chain MPSGGVFSGSVNLKHVKLGYQYLVNHFLTLLLVPVMAATALELARLGPGELLSLWRSLELDLVHILCSAFLVVFVGTVYVMSRPRPVYLVDYACYKPPASCRVPFATFMEHTRLISDDDKSVRFQTRILERSGLGEDTCLPPANHYIPPNPSMEASRAEAQLVIFSAIDDLVRRTGLKPKDIDILVVNCSLFSPTPSLSAMIINKYKLRSNIRSFNLSGMGCSAGLISIDLARDMLQVHPNSNALVVSTEIITPNFYQGSRRDMLLPNCLFRMGAAAILLSNRRREARRAKYRLVHVVRTHKGADDRAYRCVYEEEDEQGFSGISLSKELMAIAGDALKSNITTIGPLVLPMSEQLLFFFRLVGRKLVNKGWRPYIPDFKLAFEHFCIHAGGRAVIDELQKNLQLSPRHVEASRMTLHRFGNTSSSSLWYELAYIEAKGRMRRGDRVWQIGFGSGFKCNSAVWKCLRSIKTPTNGPWDDCIHRYPVDVPEVVKL
B2: pycC AGS-C cyclase domain 320-450 (Escherichia coli, UniProt P0DV24); sequence looked up; chain QFNFECFVIEDNKEVLYNSVSRFLPKKRRLTFKLSIYPGPGIGDLKIIFCKRNHGQEAKDDLSEDYSISIEDNKLIRVKNADNLSLLRKDGCYVLTVPEETLFRGLHTMEVIVRGNHETLFYRNIIGVYIK
B3: CENPE 1-407 (Homo sapiens, UniProt Q02224); sequence looked up; chain MAEEGAVAVCVRVRPLNSREESLGETAQVYWKTDNNVIYQVDGSKSFNFDRVFHGNETTKNVYEEIAAPIIDSAIQGYNGTIFAYGQTASGKTYTMMGSEDHLGVIPRAIHDIFQKIKKFPDREFLLRVSYMEIYNETITDLLCGTQKMKPLIIREDVNRNVYVADLTEEVVYTSEMALKWITKGEKSRHYGETKMNQRSSRSHTIFRMILESREKGEPSNCEGSVKVSHLNLVDLAGSERAAQTGAAGVRLKEGCNINRSLFILGQVIKKLSDGQVGGFINYRDSKLTRILQNSLGGNAKTRIICTITPVSFDETLTALQFASTAKYMKNTPYVNEVSTDEALLKRYRKEIMDLKKQLEEVSLETRAQAMEKDQLAQLLEEKDLLQKVQNEKIENLTRMLVTSSSL
B4: irisin mature, soluble (UniProt Q8NAU1); sequence looked up; chain DSPSAPVNVTVRHLKANSAVVSWDVLEDEVVIGFAISQQKKDVRMLRFIQEVNTTTRSCALWDLEEDTEYIVHVQAISIQGQSPASEPVLFKTPREAEKMASKNKDEVTMKE
B5: SOAT1 (Homo sapiens, UniProt P35610); sequence looked up; chain MVGEEKMSLRNRLSKSRENPEEDEDQRNPAKESLETPSNGRIDIKQLIAKKIKLTAEAEELKPFFMKEVGSHFDDFVTNLIEKSASLDNGGCALTTFSVLEGEKNNHRAKDLRAPPEQGKIFIARRSLLDELLEVDHIRTIYHMFIALLILFILSTLVVDYIDEGRLVLEFSLLSYAFGKFPTVVWTWWIMFLSTFSVPYFLFQHWATGYSKSSHPLIRSLFHGFLFMIFQIGVLGFGPTYVVLAYTLPPASRFIIIFEQIRFVMKAHSFVRENVPRVLNSAKEKSSTVPIPTVNQYLYFLFAPTLIYRDSYPRNPTVRWGYVAMKFAQVFGCFFYVYYIFERLCAPLFRNIKQEPFSARVLVLCVFNSILPGVLILFLTFFAFLHCWLNAFAEMLRFGDRMFYKDWWNSTSYSNYYRTWNVVVHDWLYYYAYKDFLWFFSKRFKSAAMLAVFAVSAVVHEYALAVCLSFFYPVLFVLFMFFGMAFNFIVNDSRKKPIWNVLMWTSLFLGNGVLLCFYSQEWYARQHCPLKNPTFLDYVRPRSWTCRYVF
B6: OSCA1.2 1-771 (Arabidopsis thaliana, UniProt Q5XEZ5); chain MATLQDIGVSAGINILSAFVFFIIFAVLRLQPFNDRVYFSKWYLKGLRSSPARGGAFAQRFVNLDFRSYMKFLNWMPEALKMPEPELIDHAGLDSVVYLRIYWLGLKIFTPIAVLAWAVLVPVNWTNNTLEMAKQLRNVTSSDIDKLSVSNIPEYSMRFWTHIVMAYAFTIWTCYVLMKEYETIANMRLQFVASEARRPDQFTVLVRNVPPDADESVSELVEHFFLVNHPDHYLTHQVVCNANKLADLVKKKKKLQNWLDYYQLKYARNNSQRIMVKLGFLGLWGQKVDAIEHYIAEIDKISKEISKEREEVVNDPKAIMPAAFVSFKTRWAAAVCAQTQQTRNPTQWLTEWAPEPRDVFWSNLAIPYVSLTVRRLIMHVAFFFLTFFFIVPIAFVQSLATIEGIVKAAPFLKFIVDDKFMKSVIQGFLPGIALKLFLAFLPSILMIMSKFEGFTSISSLERRAAFRYYIFNLVNVFLASVIAGAAFEQLNSFLNQSANQIPKTIGVAIPMKATFFITYIMVDGWAGVAGEILMLKPLIMFHLKNAFLVKTDKDREEAMDPGSIGFNTGEPRIQLYFLLGLVYAPVTPMLLPFILVFFALAYIVYRHQIINVYNQEYESAAAFWPDVHGRVIAALVISQLLLMGLLGTKHAALAAPFLIALPVLTIGFHHFCKGRYEPAFIRYPLQEAMMKDTLETAREPNLNLKGYLQNAYVHPVFKGDEDDYDIDDKLGKFEDEAIIVPTKRQSRRNTPAPSIISGDDSPSLPFSGKLV
B7: naaA apo 1-425 (Bradyrhizobium sp., UniProt D3WZ85); selenomethionine; chain MAGSNDVAKVMKTLDGMREGLIQTAVELGSIEAPTGREGAAGDYVYEWMARNGFGPERVGVFDDRFNVVGRLRGTGGGASLSFNSHLDTIMAREDTARFADANDRIYHEAWHEEGRIYGYSVVNCKGPMACWLIAAKALKEAGAALKGDVVLTAVCGEIDCEPVDEFQGHDYLAEDIGARYAISHGAISDYALVAEATNFKPAWVEAGKVFLKVTVFAGPSRYTPYVPRPVAALDSPNAIVRMAKLVEALEEWADNYEKRYTREYGGGTVVPKVAIGAIRGGVPYKIYRFPELCSIYMDIRLNPDTNPLVVQREVEAVVSKLGLKAEVKPFLFRRGYEAQGIEPLQNALEVAHREVVGRPTERPGSPECSMWRDTNPYNELGIPSLTYGCGGGAGGGNTYFLVDDMLKAAKVYAMTAMDLCNRTP
B8: trfB (Escherichia coli, UniProt P03052); sequence looked up; chain MKKRLTESQFQEAIQGLEVGQQTIEIARGVLVDGKPQATFATSLGLTRGAVSQAVHRVWAAFEDKNLPEGYARVTAVLPEHQAYIVRKWEADAKKKQETKR
B9: hsp18 28-148 (Oenococcus oeni, UniProt P94898); sequence looked up; chain GPRDGLWESARHNNSIMRTDISENDKEYGLKIELPGLDKKDIKIDYSNDNLTVSGVLSSKAEEKDKKNNVVRSERRYGNYSRSYYVPGVDENKISAKYENGILNLTLPKSDESQTHHIEIQ
B10: protein (Penicillium verruculosum, UniProt A0A348FUE1); sequence looked up; chain MSPMDLQESAAALVRQLGERVEDRRGFGFMSPAIYDTAWVSMISKTIDDQKTWLFAECFQYILSHQLEDGGWAMYASEIDAILNTSASLLSLKRHLSNPYQITSITQEDLSARINRAQNALQKLLNEWNVDSTLHVGFEILVPALLRYLEDEGIAFAFSGRERLLEIEKQKLSKFKAQYLYLPIKVTALHSLEAFIGAIEFDKVSHHKVSGAFMASPSSTAAYMMHATQWDDECEDYLRHVIAHASGKGSGGVPSAFPSTIFESVWPLSTLLKVGYDLNSAPFIEKIRSYLHDAYIAEKGILGFTPFVGADADDTATTILVLNLLNQPVSVDAMLKEFEEEHHFKTYSQERNPSFSANCNVLLALLYSQEPSLYSAQIEKAIRFLYKQFTDSEMDVRDKWNLSPYYSWMLMTQAITRLTTLQKTSKLSTLRDDSISKGLISLLFRIASTVVKDQKPGGSWGTRASKEETAYAVLILTYAFYLDEVTESLRHDIKIAIENGCSFLSERTMQSDSEWLWVEKVTYKSEVLSEAYILAALKRAADLPDENAEAAPVINGISTNGFEHTDRINGKLKVNGTNGTNGSHETNGINGTHEIEQINGVNGTNGHSDVPHDTNGWVEEPTAINETNGHYVNGTNHETPLTNGISNGDSVSVHTDHSDSYYQRSDWTADEEQILLGPFDYLESLPGKNMRSQLIQSFNTWLKVPTESLDVIIKVISMLHTASLLIDDIQDQSILRRGQPVAHSIFGTAQAMNSGNYVYFLALREVQKLQNPKAISIYVDSLIDLHRGQGMELFWRDSLMCPTEEQYLDMVANKTGGLFCLAIQLMQAEATIQVDFIPLVRLLGIIFQICDDYLNLKSTAYTDNKGLCEDLTEGKFSFPIIHSIRSNPGNRQLINILKQKPREDDIKRYALSYMESTNSFEYTRGVVRKLKTEAIDTIQGLEKHGLEENIGIRKILARMSLEL
B11: ADAR1 127-end 127-1226 G1007R (human, UniProt P55265); sequence looked up; chain SSHFQELSIYQDQEQRILKFLEELGEGKATTAHDLSGKLGTPKKEINRVLYSLAKKGKLQKEAGTPPLWKIAVSTQAWNQHSGVVRPDGHSQGAPNSDPSLEPEDRNSTSVSEDLLEPFIAVSAQAWNQHSGVVRPDSHSQGSPNSDPGLEPEDSNSTSALEDPLEFLDMAEIKEKICDYLFNVSDSSALNLAKNIGLTKARDINAVLIDMERQGDVYRQGTTPPIWHLTDKKRERMQIKRNTNSVPETAPAAIPETKRNAEFLTCNIPTSNASNNMVTTEKVENGQEPVIKLENRQEARPEPARLKPPVHYNGPSKAGYVDFENGQWATDDIPDDLNSIRAAPGEFRAIMEMPSFYSHGLPRCSPYKKLTECQLKNPISGLLEYAQFASQTCEFNMIEQSGPPHEPRFKFQVVINGREFPPAEAGSKKVAKQDAAMKAMTILLEEAKAKDSGKSEESSHYSTEKESEKTAESQTPTPSATSFFSGKSPVTTLLECMHKLGNSCEFRLLSKEGPAHEPKFQYCVAVGAQTFPSVSAPSKKVAKQMAAEEAMKALHGEATNSMASDNQPEGMISESLDNLESMMPNKVRKIGELVRYLNTNPVGGLLEYARSHGFAAEFKLVDQSGPPHEPKFVYQAKVGGRWFPAVCAHSKKQGKQEAADAALRVLIGENEKAERMGFTEVTPVTGASLRRTMLLLSRSPEAQPKTLPLTGSTFHDQIAMLSHRCFNTLTNSFQPSLLGRKILAAIIMKKDSEDMGVVVSLGTGNRCVKGDSLSLKGETVNDCHAEIISRRGFIRFLYSELMKYNSQTAKDSIFEPAKGGEKLQIKKTVSFHLYISTAPCGDGALFDKSCSDRAMESTESRHYPVFENPKQGKLRTKVENREGTIPVESSDIVPTWDGIRLGERLRTMSCSDKILRWNVLGLQGALLTHFLQPIYLKSVTLGYLFSQGHLTRAICCRVTRDGSAFEDGLRHPFIVNHPKVGRVSIYDSKRQSGKTKETSVNWCLADGYDLEILDGTRGTVDGPRNELSRVSKKNIFLLFKKLCSFRYRRDLLRLSYGEAKKAARDYETAKNYFKKGLKDMGYGNWISKPQEEKNFYLCPV
B12: Bri2 BRICHOS 113-231 (Homo sapiens, UniProt Q9Y287); sequence looked up; chain QTIEENIKIFEEEEVEFISVPVPEFADSDPANIVHDFNKKLTAYLDLNLDKCYVIPLNTSIVMPPRNLLELLINIKAGTYLPQSYLIHEHMVITDRIENIDHLGFFIYRLCHDKETYKL
B13: cfbA 1-143 S11W (Methanocaldococcus jannaschii, UniProt Q58380); chain MEALVLVGHGWRLPYSKELLVKLAEKVKERNLFPIVEIGLMEFSEPTIPQAVKKAIEQGAKRIIVVPVFLAHGIHTTRDIPRLLGLIEDNHEHHHEHSHHHHHHHHHEHEKLEIPEDVEIIYREPIGADDRIVDIIIDRAFGR
B14: mcsB C167A (Bacillus subtilis, UniProt P37570); chain MSLKHFIQDALSSWMKQKGPESDIVLSSRIRLARNFEHIRFPTRYSNEEASSIIQQFEDQFSEQEIPGIGKFVLIRMNDAQPLEKRVLVEKHLISPNLTESPFGGCLLSENEEVSVMLNEEDHIRIQCLFPGFQLLEAMKAANQVDDWIEEKVDYAFNEQRGYLTSAPTNVGTGLRASVMMHLPALVLTRQINRIIPAINQLGLVVRGIYGEGSEAVGNIFQISNQITLGKSEQDIVEDLNSVAAQLIEQERSAREAIYQTSKIELEDRVYRSYGVLSNCRMIESKETAKCLSDVRLGIDLGIIKGLSSNILNELMILTQPGFLQQYSGGALRPNERDIRRAALIRERLHLEMNGKRQEDESI
UniProt Q9CZW5, sequence (whole entry, looked up): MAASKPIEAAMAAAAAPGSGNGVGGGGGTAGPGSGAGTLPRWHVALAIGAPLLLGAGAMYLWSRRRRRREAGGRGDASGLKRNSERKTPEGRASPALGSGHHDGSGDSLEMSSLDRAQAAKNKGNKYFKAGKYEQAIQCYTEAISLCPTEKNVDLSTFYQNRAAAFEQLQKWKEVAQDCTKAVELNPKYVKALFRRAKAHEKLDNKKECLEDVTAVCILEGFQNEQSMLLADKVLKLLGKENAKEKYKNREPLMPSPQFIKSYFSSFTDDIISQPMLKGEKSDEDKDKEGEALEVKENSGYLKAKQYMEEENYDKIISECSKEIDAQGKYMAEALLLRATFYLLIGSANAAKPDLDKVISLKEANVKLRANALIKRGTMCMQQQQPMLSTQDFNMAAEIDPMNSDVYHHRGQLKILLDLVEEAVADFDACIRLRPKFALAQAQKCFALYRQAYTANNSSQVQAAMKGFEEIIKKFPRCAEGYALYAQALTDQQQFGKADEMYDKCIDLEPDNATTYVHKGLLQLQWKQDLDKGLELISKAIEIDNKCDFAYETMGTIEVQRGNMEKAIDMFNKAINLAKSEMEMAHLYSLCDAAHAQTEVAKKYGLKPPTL

Molecule | test | conditions | subunits per oligomer
MKGMSKMPQFNLRWPREVLDLVRKVAEENGRSVNSEIYQRVMESFKKEGRIGA (Arc repressor 1-53 (P22 phage, UniProt P03050)) | SEC | – | 2
B1 (CER6) | cryo-EM | – | 2
B2 | SEC-MALS | – | 2
B3 (CENPE 1-407) | AUC, SEC | – | 2
B4 (irisin mature, soluble) | SEC | – | 2
B5 (SOAT1) | native gel | CN-PAGE, BN-PAGE | 4
B6 (OSCA1.2 1-771) | cryo-EM structure | – | 2
B7 (naaA apo 1-425) | crystal structure | – | 8
B8 (trfB) | SEC | – | 2
B9 (hsp18 28-148) | cross-linking | – | 2 subunits
Tomm70 (Mus musculus, UniProt Q9CZW5) | native PAGE | – | 2
B10 (protein) | SEC-SAXS | – | 6
B11 (ADAR1 127-end 127-1226 G1007R) | SEC | – | 2
B12 (Bri2 BRICHOS 113-231) | SAXS | – | 2
B13 (cfbA 1-143 S11W) | SEC | – | 2
B14 (mcsB C167A) | SEC | – | 2

Some of these lines once more:
Molecule | test | conditions | subunits per oligomer
B4 (irisin mature, soluble) | SEC | – | 2
